# Experimental data gathered from unrelated publications.
# Each numbered part is a random draw from the data of one study; scales do not carry over between parts. Positions count from the first letter of the parent shown.

# Set 1
# Target: CCNA1, cyclin fold, Cln2 fusion (human)
# Method: yeast growth competition, sequencing
# Medium: yeast
# Notes: weak parent motif
# Baseline: not given
# Direction: higher = stronger binding
# Starting sequence: CDKN1A docking peptide (human); SKACRRLFGPVDS; partner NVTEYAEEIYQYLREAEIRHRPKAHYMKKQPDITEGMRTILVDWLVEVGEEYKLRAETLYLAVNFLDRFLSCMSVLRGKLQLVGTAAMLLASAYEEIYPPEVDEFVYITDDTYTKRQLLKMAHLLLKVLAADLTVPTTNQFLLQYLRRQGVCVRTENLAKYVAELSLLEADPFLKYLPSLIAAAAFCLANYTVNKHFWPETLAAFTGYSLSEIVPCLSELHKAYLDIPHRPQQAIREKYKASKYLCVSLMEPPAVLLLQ
Variant,normalised enrichment score
R6N,0.864
P10H,0.0334
R5P,-0.163
G9S,0.749
A3S,-0.174
A3I,0.374
D12Q,0.37
K2L,0.301
A3G,0.0301
F8S,0.23
C4W,0.343
S13A,0.625
V11S,0.617
R6T,0.55
L7C,0.479
G9I,0.708
C4Q,0.428
G9Y,1.38

# Set 2
# Target: Ras GTPase-activating protein-binding protein 1, full length (G3BP1, Homo sapiens, UniProt Q13283)
# UniProt Q13283, sequence (whole entry, looked up): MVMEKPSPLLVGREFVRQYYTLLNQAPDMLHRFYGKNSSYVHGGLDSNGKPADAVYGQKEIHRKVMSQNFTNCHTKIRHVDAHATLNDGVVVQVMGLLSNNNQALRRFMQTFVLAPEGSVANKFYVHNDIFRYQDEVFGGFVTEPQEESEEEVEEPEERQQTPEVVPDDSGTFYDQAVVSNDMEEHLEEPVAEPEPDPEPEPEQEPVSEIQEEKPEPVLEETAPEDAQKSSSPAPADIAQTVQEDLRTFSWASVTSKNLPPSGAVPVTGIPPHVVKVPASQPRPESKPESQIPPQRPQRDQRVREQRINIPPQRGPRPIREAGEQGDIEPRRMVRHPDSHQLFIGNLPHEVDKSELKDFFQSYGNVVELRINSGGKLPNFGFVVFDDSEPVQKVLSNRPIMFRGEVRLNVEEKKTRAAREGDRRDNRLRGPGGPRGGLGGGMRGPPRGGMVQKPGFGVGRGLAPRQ
# Method: RNA Bind-n-Seq
# Molecule type: RNA
# Medium: in vitro
# Tested at: 200 nM
# Notes: whole 134-nt RNA, ends assumed
# Added: 150 mM KCl
# Baseline: input library
# Direction: higher = stronger binding
# All sequences stand within: GGGAGUUCUACAGUCCGACGAUC … UGGAAUUCUCGGGUGUCAAGG
Sequence,log2 enrichment
CACAGACAACACGCACCCACACAGACACAGAGGGAAGGGGUUGGGAUGGGGACAGGGUCCACAGCAGGGCGGGGUAGGACCCCAGCCCCU,1.67
UGUUGGGCUUCGAUCCCAGGUGGAUGAUGAUGCCUUCCUACAUGGACCCACGUAUCACGCCCACUCGGACCCCGGUGGACUUCUACCCCU,0.656
UCCUGUGCUACACAUCGUAUGUACCGAAUCGGGGUUUUUGGGGAAAGGGGAAAAAGGGGAAAGUAUUAUGUUACGCCGUUCGGAUCUGCA,0.664
GCAGGAAGUAAAAACAAAUGGAAAUGCUUCGGAUAGUGGCAGGGGUGGCGGUUGCUAAGGAAAGGGUGGGAUGGGAGUGGGUAAAGAGUU,1.05
AGUCCUGUGCUACACAUCGUAUGUACCGAAUCAAACCCAAACCCCCAAAUUUUUAAAAAAGUAUUAUGUUACGCCGUUCGGAUCUGCACU,-0.39
UUCCUCAAGUCCUGUGCUACACAUCGUAUGUACCGAAUCGGUGGGUGGUGGAAAGUAUUAUGUUACGCCGUUCGGAUCUGCACUUCCAGC,-0.193
UCCUGUGCUACACAUCGUAUGUACCGAAUCGGGGUGGGGAAAAAGGGGUUUUUUUGGGGAAAGUAUUAUGUUACGCCGUUCGGAUCUGCA,0.679
CUGUGCUACACAUCGUAUGUACCGAAUCGGGAAAAAAAGGGAAAAAAAGGAAAAAAAGGGGAAAGUAUUAUGUUACGCCGUUCGGAUCUG,-0.866
CCUGUGCUACACAUCGUAUGUACCGAAUCGGGGAAAAAAAGGGGUGGGGAAAAAAAGGGGAAAGUAUUAUGUUACGCCGUUCGGAUCUGC,0.23

# Set 3
# Target: ABI1, truncated, D143A, DHFR fusion (Arabidopsis thaliana)
# Method: DHFR PCA, deep sequencing
# Medium: yeast
# Notes: methotrexate growth selection, single substitutions
# Added: (+)-ABA 0.11 µM
# Baseline: wild-type fitted maximum
# Direction: higher = stronger binding
# Starting sequence: PYL1, truncated, DHFR fusion (Arabidopsis thaliana); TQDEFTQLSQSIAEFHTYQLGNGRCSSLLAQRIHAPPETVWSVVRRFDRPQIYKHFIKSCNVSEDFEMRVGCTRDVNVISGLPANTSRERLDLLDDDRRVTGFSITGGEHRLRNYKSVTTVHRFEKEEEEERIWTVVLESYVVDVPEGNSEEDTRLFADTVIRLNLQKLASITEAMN; partner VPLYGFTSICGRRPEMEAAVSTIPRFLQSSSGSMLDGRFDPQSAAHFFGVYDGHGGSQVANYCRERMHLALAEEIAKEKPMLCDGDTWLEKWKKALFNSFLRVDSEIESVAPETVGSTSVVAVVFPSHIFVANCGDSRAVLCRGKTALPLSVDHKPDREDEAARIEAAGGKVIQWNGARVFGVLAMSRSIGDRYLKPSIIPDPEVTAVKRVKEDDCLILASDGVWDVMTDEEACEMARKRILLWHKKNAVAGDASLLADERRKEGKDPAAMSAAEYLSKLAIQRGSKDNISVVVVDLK
Variant,relative binding score
C72V,37.3%
N85V,65.6%
Q167N,16.5%
F124R,0.745%
T1L,35.9%
T106M,38.2%
I52K,25.6%
T6W,29%
P50K,-2.9%
G148Y,-6.35%
R111Y,2.26%

# Set 4
# Target: RNA binding protein fox-1 homolog 2, RRM domain, GST-SBP tag (RBFOX2, Homo sapiens, UniProt O43251-10, residues 100-194)
# Method: RNA Bind-n-Seq
# Molecule type: RNA
# Medium: in vitro
# Tested at: 365 nM
# Notes: natural RNA segment, single round, ends assumed
# Baseline: no-protein control
# Direction: higher = stronger binding
# All sequences stand within: GGGAGUUCUACAGUCCGACGAUC … UGGAAUUCUCGGGUGCCAA
# Target sequence (chain): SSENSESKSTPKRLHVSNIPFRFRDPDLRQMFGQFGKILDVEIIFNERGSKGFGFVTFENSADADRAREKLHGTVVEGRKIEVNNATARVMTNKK
Sequence,RBNS enrichment (R)
UAUUGACGUUAUAACUGGGCUUCAAAGAGAUGUCUGUCUAUAUUGGGGCCUCUCAUUUUUUAUAAGCUCUUGAUAUACUUGAACAAUUUAAUAUGUACAGUUAGUUUGCU,0.437
AUUUUACUGGGGUGAUUCGGCUGUUGUCUUUGUGAAAUCCGGGGAAACAGAUCACUGAAAUUCAAAGAAAAUGUCUCUUAAGGUUCAUGUUUGUGGGAUUUUUUUUGGGG,0.955
CAGCACUGCUGACUGCCUGCCUCUCUGACAUGUGGCUCUUGUUUCGUGGGGACUUUUCCUCUGGAAAAUACUUUGCCUUCAGGUAUUUGAUUGAAAUAUUUAAGAGUAUU,1.14
UGCCACUAAUUUUAGUAUUCAUUCUGCAUUGCUAGAUAAAAGCUGAAGUUACUUUAUGUUUGUCUUUUAAUGCUUCAUUCAAUAUUGACAUUUGUAGUUGAGCGGGGGGU,0.247
ACACCAAGGGCUUUGCCCUGCGCUGCUUUGCCACUGCUGCUGUCCGCUCACUGUCCUGCCUGCUGUCCUCUACAGCUCCCUAUCCUUCCAUGUCUUUGGCCAUGUAGAUU,1.85
GGGCCGCCCGCGGACAAGCCCGAGGAGAAUGAGGUGAGCGCUGCCCAGUCUUCCCCGUGUGCCGGCUGCGAGCCUCCUUGCUCCUGCAUCUCGACCAUUCCGUGUUGGCU,1.37
UCAGAAAUCCGCCUGCCUCUGCCUCCCAAGUGCUGGGAUUAAAGGCGUGCGCCACCUCCGCCCAGCUCAGAACUUCACUUUUAAAAGUAAUCUGUUCCCAGUGUGGUAUC,0.281
CUUCGAAGGUACGGAUGAGGAGAAAUCUUCUAUGAGCAACUCCGUGCUGUCUGCCUAGGAAUCCUUCAGUGGUAUGGGACACUCCUCAAGUGAGCCAAAUGCCCGUUCUU,0.248

# Other studies, line by line
Molecule,target,assay,test system,conditions,scale,endpoint,result
"PhoQ, residues 284 288 289 292 302 303 TGYLSA","PhoP, residues 12 14 15 18 19 AGCRL (Escherichia coli, UniProt P23836)","Sort-seq, measured: YFP reporter",E. coli,"PhoQ-PhoP variant library, added: 10 µM Mg2+","baseline: high Mg2+ state, higher = stronger signaling",fold induction,2.51

# For quick reference, copied from above (set 1):
Variant,normalised enrichment score
V11S,0.617
R6T,0.55
L7C,0.479
G9I,0.708
C4Q,0.428
